# Results of several laboratories.
# Numbered parts are unrelated; each lists some results of a single study. Substitutions count along the parent as printed.

# Block 1 — method: RNAcompete; form: RNA; sample: in vitro; concentration: 20 nM; setting: 7-mer, probes averaged, single round; reference: mean of 7-mers; direction: higher = stronger binding
# Target: PABPC1L2, full length, GST fusion (mouse, UniProt A0ABA7IW68)
# Target sequence (chain): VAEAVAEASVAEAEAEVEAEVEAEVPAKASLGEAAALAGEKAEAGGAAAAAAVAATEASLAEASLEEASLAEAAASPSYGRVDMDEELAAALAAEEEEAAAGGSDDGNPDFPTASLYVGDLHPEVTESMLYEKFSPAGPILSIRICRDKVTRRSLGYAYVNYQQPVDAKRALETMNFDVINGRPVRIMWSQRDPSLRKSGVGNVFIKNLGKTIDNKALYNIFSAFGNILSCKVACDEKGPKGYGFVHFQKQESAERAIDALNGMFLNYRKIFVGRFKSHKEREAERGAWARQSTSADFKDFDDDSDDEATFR
Sequence,7-mer Z-score
GUUCGGG,-0.229
CGUUCCC,-0.49
GAAGGGG,0.597
GGUCAAU,-0.0174
GUACAAA,1.85
CCAAAGA,0.506
UGCGAUC,-0.233
CGCGUCC,-0.3
GAGGGCA,0.677
CCGGGUA,-0.103
CUCAGAA,0.119
UGCUGGC,-0.242
ACACGGC,0.211
CUAUUUG,-0.461
UCAAUUU,-0.162
ACUUGCU,-0.306
AAGCGAA,0.327
ACUCGCU,-0.28

# Block 2 — method: protein-binding microarray; form: double-stranded DNA, one strand shown; sample: in vitro; concentration: 940 nM top; setting: 60-bp whole probe; together with: salmon DNA 0.4 mg/ml; reference: random background probes; direction: higher = stronger binding; all sequences stand within: GCCTAGCAC … GTCTTGATTCGCTTGACGCTGCTG
# Target: Interferon regulatory factor 5, full length, phosphomimetic (IRF5, Homo sapiens, UniProt Q13568-2, residues 1-514, S451D/S453D/S456D/S462D)
Sequence,fitted relative affinity
AGTATTACCTCATCTTTCCCTGTGCTA,1.85 z-score
ATTAGTATGTTCACTATTTAAGTGCTA,0.151 z-score
TTAGGTATCGGTACCGGTTAGTGCTAG,10.7 z-score
CTAGGTATCGGTCTCGGTTAGTGCTAG,8.62 z-score
GACGGACTGGGGTTTCGGGCCGTGCTA,1.35 z-score
TCCCCTCTAGGTTCTCTGAAGGTGCTA,0.447 z-score
GTCGGTTTCGGGACTGGGGACGTGCTA,7.45 z-score
TTAGGTTTCGACATTCGGTTAGTGCTA,8.16 z-score
GACGATTTCAGGCTCGAGACGTGCTAG,-0.183 z-score
TTAGATCTCAGACTGGATTCGTGCTAG,-0.582 z-score
GAGATGATCCAGTTTTACCTGGTGCTA,-0.0162 z-score

# Block 3 — method: protein-binding microarray; form: double-stranded DNA, one strand shown; sample: in vitro; concentration: 0.8 µM; setting: whole 60-bp probe, no competitor; direction: higher = stronger binding; all sequences stand within: … GTCTTGATTCGCTTGACGCTGCTG
# Target: Centromere-binding protein 1, full length, N-terminal tag (CBF1, Saccharomyces cerevisiae, UniProt P17106, residues 1-351)
# UniProt P17106, sequence (whole entry, looked up): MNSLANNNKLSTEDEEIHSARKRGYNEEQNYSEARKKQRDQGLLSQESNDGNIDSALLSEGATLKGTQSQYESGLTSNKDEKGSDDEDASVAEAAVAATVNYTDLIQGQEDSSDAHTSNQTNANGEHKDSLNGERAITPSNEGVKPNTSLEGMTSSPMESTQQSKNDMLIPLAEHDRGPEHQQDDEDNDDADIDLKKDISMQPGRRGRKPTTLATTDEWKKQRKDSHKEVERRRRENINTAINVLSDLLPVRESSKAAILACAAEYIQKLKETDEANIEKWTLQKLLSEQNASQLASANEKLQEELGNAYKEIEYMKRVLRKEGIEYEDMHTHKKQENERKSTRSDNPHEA
Sequence,fluorescence intensity
GAATACGAATTTCCTGACGTGAGAAGGAAAAAATAG,552 a.u.
CTATTGTTTTTATCAGGTGTTTCCCTATTTATATTC,884 a.u.
CTAACCCATTTCGCCATCACTATTTTTACCATTTTC,511 a.u.
CTATCCTTCTTTCTGCGCGTGAATCAAAACACATTC,689 a.u.
GAATACCTATTACTGCATGTGGAGAAAAGATTATAG,632 a.u.
CTAACCTCACCTTACCACATGTTGGTCCGTTGCTTC,554 a.u.
GAATGTTGTCACCTCCAGGTGATTTGCTGTCTTTAG,550 a.u.
CTATGGGAATTCTCTGATGTTGTTTTCCAAAGATTC,511 a.u.
CTATCTTCTTGAAGCCACACGTGAATACTACCTTTC,2380 a.u.
GAAGAATACAGTGGGCACATGCCACCTGTTATTTAG,910 a.u.
GAAAAACAGATAGACAGCATGACGGCTGAAGCCTAG,485 a.u.
CTAATTCGCTTCTGTACATCAGCCGGTATTCGCTTC,489 a.u.
CTAGTTCATTATCTTCACGTTTTCCCTATCACATTC,703 a.u.
TGTACGAAGCTATGTCAGGTATATATAGTAGTTAGG,543 a.u.
CCTAACTACTATATGCAGCTGATATAGCTTCGTACA,679 a.u.
GAACATTTCTAGGGTAACATCAGAATGCCCTTGTAG,542 a.u.
GAATAGATTTTACGTGATATGTTGGATAAGTAGTAG,605 a.u.

# Block 4 — method: protein binding microarray; form: double-stranded DNA, one strand shown; sample: in vitro; concentration: not given; reference: not given; direction: higher = stronger binding
# Target: Histone acetyltransferase KAT6A, winged helix 1, GST fusion (KAT6A, Homo sapiens, UniProt Q92794, residues 1-85)
# Setting: 8-mer, flanks averaged, mean of 2 arrays, mostly near background
# Construct (chain): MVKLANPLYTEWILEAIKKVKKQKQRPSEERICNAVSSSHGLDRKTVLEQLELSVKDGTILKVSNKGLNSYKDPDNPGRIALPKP
Sequence,E-score
CCGCTAGG,0.235
GTAGATCA,-0.107
CGTGGGTA,0.0852
CGATATCC,-0.0461
AAGTAGCG,0.07
AGGGCCTC,-0.132
AGGTGAAT,-0.0676
CTCCTACC,0.0641
CGAGTCCG,0.354
GCGGGTTA,0.338
CTTCAATA,-0.222
CCAGAAAA,-0.314
CCTTGCTC,-0.15
AGAGACGA,-0.0146
AGGTTAAG,-0.168
GCGGAACC,0.312

# Block 5 — method: RNA Bind-n-Seq; form: RNA; sample: in vitro; concentration: 365 nM; reference: no-protein control; direction: higher = stronger binding
# Target: RNA binding protein fox-1 homolog 2, RRM domain, GST-SBP tag (RBFOX2, Homo sapiens, UniProt O43251-10, residues 100-194)
# Setting: natural RNA segment, single round, ends assumed
# All sequences stand within: GGGAGUUCUACAGUCCGACGAUC … UGGAAUUCUCGGGUGCCAA
# Target sequence (chain): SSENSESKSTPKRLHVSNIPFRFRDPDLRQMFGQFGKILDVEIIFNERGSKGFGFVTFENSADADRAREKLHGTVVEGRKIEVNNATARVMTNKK
Sequence,RBNS enrichment (R)
GGGCGUUUCUUGCCCUCUGCUGACUACUGAUUGGAUUUUACCUAUGGCUUUCUGCAACUUGCUACUCUCUCCCUCUCCAUCCCAUCUUUGCAGCCUCAUAGGGUGGGAUA,0.522
CUCUCCUCCCAGUCCCACCCCUUGCCCCACGGAGUCCUGGGGACGCAGUGCCCCAGCUGGGAAGAGGGCGGGAUCGGGCACUGGUUCCUCCUUGUCCCCGCUUUCUUGGG,0.375
ACGUUGGCUCAUGCAUAUAACCACCUGCUGCUGAUGUACUUCUCCAUCUUAAAAAGAUUUAGAGUGGAUUAACCAGGUCAUUACAUCUUAAUUUAAUAACAAGCAUUACU,0.366
CCCUGGUCUUGGCGCUUCCCUGAUGGACAGAGCUCAAGUUCCAUUUAUAUUAACCGCCACCUGUGGAUUUUGCAGUAAUUGCUAACACAUGCAGUUUUAAUGGGAAGUGG,0.275
GACCACAAGAAGGAUGAUUCAACAGGUUUUCCUGAAGAAUUGAAAAACCAUUUUGCUGUCCCUUUUCCUUUUUUGAUGUUCUUUCACCCUUUUCUGUUUGCUAAGUGAGG,0.763
GGAGGUUGGCUGCCCUGAGGAAUUAGCACGUCCGUGGCAGCUGCUGCCUCCCUUGUCCUGUGAUUGUUCUGGAGGCUUCUGCCCAACUGCUUCACUUUCUCCAACCCUUC,1.18
UUCCUUCUGGGAAGGCCAGCAUCAUCCUGAAGAUGACCUGUGGGGUUGGUCCUUGAUGGCUGUCCCCUCCACCCUACCCCUGAGAAGGGAAGCUGCCCGUUGCUGCUACU,0.204
CACCCCGGGCUCUCUGCUGUACAUAUUCGAGACUAGUUUUUAUUCCUUGUGAAGAUGAUAUACUAUUUUUGUUAAGCGUGUCUGUAUUUAUGUGUGAGGAGCUGCUGGCU,0.393
UAGAGAGGAGCGGAAGAAGACCAUCGAGCUGACGGCACAUGACCGGCACCGGGCAGGGGCCAGUCCCUCAGCCCCUGGACCACUGGAGAAAAGGAAGACGAAGAGUUUGG,0.607
UCCCCAACCUCUGCCAGGGCAAUCUCUAACUUCAAUCCCGCCUUCGACAGUGAAAAAGCUCUACUUCUACGCUGACCCAGGGAGGAAACACUAGGACCCUGUUGUAUCCU,0.3
GGCAAGGGCUAUUUACCAGGGCUUAAAUGUUGUGUCUAGAAUUAAGUAUGGGCAUAAACUGGCUUCUGAAUCCCUUUCCAGAGUGUUGGAUCCAUUUCCCUGGUCUUGGC,0.263
AUUCUGACGCCUACUGGCUCUAUGUAAUUAUUAAGUCACAUUGACCUCUGUGUAGGGCUGUUUUCCAGGAAUUAGGAAGAAAACCCAAAGAAAAUAUUGCACAAAGGUUU,0.524

# Block 6 — target: CCND3, cyclin fold, Cln2 fusion (human); method: yeast growth competition, sequencing; sample: yeast; setting: weak parent motif; reference: not given; direction: higher = stronger binding
# Starting sequence: RBL1 docking peptide (human); GSAKRRLFGEDPP
Change,normalised enrichment score
R6Q,0.0653
G1V,0.193
D11R,0.114
D11I,0.171
P13S,0.0119
P13Y,0.0807
E10F,0.181
D11W,0.137
K4G,0.108
K4H,0.0209
L7W,0.162
D11S,0.115
K4R,0.211
L7F,0.0871
P13F,0.0439
S2Q,0.112
G9L,0.108

# Some of these lines once more (block 3):
Sequence,fluorescence intensity
CTAACCCATTTCGCCATCACTATTTTTACCATTTTC,511 a.u.
CTATCCTTCTTTCTGCGCGTGAATCAAAACACATTC,689 a.u.
GAATACCTATTACTGCATGTGGAGAAAAGATTATAG,632 a.u.
CTAACCTCACCTTACCACATGTTGGTCCGTTGCTTC,554 a.u.
GAATGTTGTCACCTCCAGGTGATTTGCTGTCTTTAG,550 a.u.
CTATGGGAATTCTCTGATGTTGTTTTCCAAAGATTC,511 a.u.
CTATCTTCTTGAAGCCACACGTGAATACTACCTTTC,2380 a.u.
GAAGAATACAGTGGGCACATGCCACCTGTTATTTAG,910 a.u.
GAAAAACAGATAGACAGCATGACGGCTGAAGCCTAG,485 a.u.
CTAATTCGCTTCTGTACATCAGCCGGTATTCGCTTC,489 a.u.
CTAGTTCATTATCTTCACGTTTTCCCTATCACATTC,703 a.u.
TGTACGAAGCTATGTCAGGTATATATAGTAGTTAGG,543 a.u.
